Results of several laboratories.
Each numbered part is a random draw from the data of one study; scales do not carry over between parts. “And” joins repeats or separate records; there may be more than shown.
UniProt O00141, sequence (whole entry, looked up): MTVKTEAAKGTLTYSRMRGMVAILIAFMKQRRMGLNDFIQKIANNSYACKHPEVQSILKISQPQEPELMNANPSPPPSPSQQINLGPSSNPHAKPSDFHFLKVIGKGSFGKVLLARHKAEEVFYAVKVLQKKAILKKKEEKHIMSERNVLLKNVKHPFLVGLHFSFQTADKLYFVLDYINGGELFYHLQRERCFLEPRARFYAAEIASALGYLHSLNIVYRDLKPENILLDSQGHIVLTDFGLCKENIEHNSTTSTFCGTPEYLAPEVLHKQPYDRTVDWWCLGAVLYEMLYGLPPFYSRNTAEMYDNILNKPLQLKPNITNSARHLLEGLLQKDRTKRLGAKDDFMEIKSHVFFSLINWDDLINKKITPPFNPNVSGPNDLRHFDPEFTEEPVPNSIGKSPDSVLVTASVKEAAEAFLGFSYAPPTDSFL
UniProt P45984, sequence (whole entry, looked up): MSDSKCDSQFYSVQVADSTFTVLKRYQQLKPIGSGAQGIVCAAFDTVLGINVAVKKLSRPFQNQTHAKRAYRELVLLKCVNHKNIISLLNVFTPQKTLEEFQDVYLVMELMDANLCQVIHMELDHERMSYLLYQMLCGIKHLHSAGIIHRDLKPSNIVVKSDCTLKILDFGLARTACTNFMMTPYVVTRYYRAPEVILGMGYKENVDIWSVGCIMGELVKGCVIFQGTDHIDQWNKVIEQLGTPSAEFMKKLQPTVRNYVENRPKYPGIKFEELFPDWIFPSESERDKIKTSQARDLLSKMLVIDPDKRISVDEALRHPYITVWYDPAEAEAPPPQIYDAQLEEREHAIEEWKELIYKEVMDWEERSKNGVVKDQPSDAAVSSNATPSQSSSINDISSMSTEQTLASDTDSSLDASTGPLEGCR
UniProt P42336, sequence (whole entry, unmodified, looked up): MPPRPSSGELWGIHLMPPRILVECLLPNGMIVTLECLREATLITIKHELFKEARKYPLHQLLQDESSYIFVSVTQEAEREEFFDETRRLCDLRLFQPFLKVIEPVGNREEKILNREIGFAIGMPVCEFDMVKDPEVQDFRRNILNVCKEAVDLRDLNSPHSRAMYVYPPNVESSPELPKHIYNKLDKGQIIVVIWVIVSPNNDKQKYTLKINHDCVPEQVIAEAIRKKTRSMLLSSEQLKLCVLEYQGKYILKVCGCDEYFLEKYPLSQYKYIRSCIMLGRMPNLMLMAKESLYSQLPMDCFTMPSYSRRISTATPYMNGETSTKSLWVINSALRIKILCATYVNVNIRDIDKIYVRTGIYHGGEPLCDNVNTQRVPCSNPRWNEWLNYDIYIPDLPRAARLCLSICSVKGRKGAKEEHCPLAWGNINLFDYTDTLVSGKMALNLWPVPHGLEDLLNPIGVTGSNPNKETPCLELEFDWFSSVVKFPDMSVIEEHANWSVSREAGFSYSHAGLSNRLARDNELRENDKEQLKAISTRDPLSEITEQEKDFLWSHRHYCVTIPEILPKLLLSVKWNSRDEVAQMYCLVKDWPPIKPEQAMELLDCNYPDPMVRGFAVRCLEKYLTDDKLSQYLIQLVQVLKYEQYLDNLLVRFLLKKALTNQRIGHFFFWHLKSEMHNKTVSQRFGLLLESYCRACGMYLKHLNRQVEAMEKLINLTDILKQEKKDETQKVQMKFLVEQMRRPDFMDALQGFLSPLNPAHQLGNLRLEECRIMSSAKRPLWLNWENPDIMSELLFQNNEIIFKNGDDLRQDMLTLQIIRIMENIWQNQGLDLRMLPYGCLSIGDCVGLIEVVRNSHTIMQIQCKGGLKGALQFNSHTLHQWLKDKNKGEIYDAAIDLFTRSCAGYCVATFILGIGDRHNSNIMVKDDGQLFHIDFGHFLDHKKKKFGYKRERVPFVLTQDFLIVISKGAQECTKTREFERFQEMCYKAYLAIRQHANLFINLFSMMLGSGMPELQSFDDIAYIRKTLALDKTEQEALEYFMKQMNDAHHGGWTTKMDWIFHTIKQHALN
UniProt P00519, sequence (whole entry, unmodified, looked up): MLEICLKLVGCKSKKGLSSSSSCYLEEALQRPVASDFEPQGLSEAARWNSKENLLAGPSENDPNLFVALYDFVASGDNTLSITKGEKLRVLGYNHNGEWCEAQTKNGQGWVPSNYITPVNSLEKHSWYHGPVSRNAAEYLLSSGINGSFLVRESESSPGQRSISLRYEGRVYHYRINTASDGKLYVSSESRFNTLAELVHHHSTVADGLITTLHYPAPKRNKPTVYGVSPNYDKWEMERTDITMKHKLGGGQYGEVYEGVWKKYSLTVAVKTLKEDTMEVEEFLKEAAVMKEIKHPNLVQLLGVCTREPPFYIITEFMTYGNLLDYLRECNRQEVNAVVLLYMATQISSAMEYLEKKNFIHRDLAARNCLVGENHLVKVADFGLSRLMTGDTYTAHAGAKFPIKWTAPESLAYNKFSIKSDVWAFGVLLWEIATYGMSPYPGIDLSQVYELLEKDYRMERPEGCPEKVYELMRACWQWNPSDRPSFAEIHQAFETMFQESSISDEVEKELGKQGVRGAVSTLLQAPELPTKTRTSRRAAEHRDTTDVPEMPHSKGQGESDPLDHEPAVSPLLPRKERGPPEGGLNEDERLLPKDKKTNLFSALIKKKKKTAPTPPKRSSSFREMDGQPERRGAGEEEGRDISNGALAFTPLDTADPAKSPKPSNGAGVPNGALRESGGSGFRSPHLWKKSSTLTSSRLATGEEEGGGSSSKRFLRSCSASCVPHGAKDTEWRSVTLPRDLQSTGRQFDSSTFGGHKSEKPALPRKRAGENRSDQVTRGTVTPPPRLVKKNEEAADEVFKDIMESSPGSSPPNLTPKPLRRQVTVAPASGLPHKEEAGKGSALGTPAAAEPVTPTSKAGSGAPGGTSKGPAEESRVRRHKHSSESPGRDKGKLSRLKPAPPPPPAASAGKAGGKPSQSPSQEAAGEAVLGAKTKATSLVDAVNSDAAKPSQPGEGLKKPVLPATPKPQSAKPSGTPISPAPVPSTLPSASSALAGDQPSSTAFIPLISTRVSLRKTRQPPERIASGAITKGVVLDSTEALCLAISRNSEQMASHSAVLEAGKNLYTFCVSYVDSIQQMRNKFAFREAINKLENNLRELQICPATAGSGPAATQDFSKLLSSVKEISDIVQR
UniProt P50750, sequence (whole entry, looked up): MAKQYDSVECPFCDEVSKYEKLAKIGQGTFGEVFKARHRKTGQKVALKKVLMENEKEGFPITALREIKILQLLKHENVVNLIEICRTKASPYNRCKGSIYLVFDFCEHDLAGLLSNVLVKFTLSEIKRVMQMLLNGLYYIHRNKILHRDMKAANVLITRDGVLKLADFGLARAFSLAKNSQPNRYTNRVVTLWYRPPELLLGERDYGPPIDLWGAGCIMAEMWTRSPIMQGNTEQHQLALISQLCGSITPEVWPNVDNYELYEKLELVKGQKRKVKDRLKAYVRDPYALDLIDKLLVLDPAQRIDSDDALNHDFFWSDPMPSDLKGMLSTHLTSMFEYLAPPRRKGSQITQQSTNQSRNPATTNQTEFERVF

Sample 1
Target: Membrane-associated tyrosine- and threonine-specific cdc2-inhibitory kinase (PKMYT1, Homo sapiens, UniProt Q99640)
Observed: binding
Method: HTRF
Tested at: 37.04 nM
Quantity: inhibition
Residues (Q99640 1-499): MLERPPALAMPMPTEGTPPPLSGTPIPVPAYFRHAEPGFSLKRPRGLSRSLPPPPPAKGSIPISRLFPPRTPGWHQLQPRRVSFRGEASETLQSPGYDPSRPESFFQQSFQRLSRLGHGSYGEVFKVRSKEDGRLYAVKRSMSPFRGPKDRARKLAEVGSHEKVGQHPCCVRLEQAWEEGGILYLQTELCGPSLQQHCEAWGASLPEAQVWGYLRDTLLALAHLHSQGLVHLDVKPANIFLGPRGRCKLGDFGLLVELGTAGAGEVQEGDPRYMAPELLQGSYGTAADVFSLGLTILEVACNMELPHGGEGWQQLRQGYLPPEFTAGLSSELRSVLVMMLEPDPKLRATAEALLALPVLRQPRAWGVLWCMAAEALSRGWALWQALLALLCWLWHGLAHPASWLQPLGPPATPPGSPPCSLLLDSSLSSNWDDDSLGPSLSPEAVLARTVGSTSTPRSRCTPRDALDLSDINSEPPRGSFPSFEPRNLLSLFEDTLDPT
Cc1ccc(O)c(C)c1-c1cnc2[nH]c(-c3cnc(N4CCC(CN5CCN(c6c(F)cc(NC7CCC(=O)NC7=O)cc6F)CC5)CC4)nc3)cc2c1C#N (racemic): 66.9% and 67.5%
Cc1ccc(O)c(C)c1-c1cnc2[nH]c(-c3cnc(N4CCC(CCN5CCN(c6cc7c(cc6F)c(N6CCC(=O)NC6=O)nn7C)CC5)CC4)nc3)cc2c1C#N: 97.9% and 98%
Cc1ncc(-c2cc3c(N)c(-c4c(C)ccc(O)c4C)cnc3[nH]2)cn1: 35.8% and 37.4%
Cc1ccc(O)c(C)c1-c1cnc2[nH]c(-c3cnc(N4CCC(CCN5CCN(c6ccc7c(c6)C(=O)N(C6CCC(=O)NC6=O)C7=O)CC5)CC4)nc3)cc2c1C#N (racemic): 93.5% and 95.4%
Cc1ccc(O)c(C)c1-c1cnc2[nH]c(-c3cnc(N4CCC(CN5CCN(c6ccc(NC7CCC(=O)NC7=O)c(F)c6)CC5)CC4)nc3)cc2c1C#N (racemic): 95.9% and 95.7%
Cc1ccc(O)c(C)c1-c1cnc2[nH]c(-c3cnc(N4CCC5(CC4)CC(N4CCN(c6ccc7c(c6)C(=O)N(C6CCC(=O)NC6=O)C7=O)CC4)CO5)nc3)cc2c1C#N (mixture of isomers): 95.1% and 94.4%

Sample 2
Structure (SMILES): Cc1ncsc1-c1ccc(C(CO)NC(=O)C2CC(O)CN2C(=O)C(C(C)C)n2cc(-c3ccc(COc4c(-c5c(C)c(F)cc6[nH]ncc56)c(C5CC5)cc5c(N6CC7CC6CN7)nc(OC6CCOCC6)nc45)cc3)nn2)cc1 (stereo not drawn)
Observed: cell growth or viability
Method: ATP luminescence
Time: 6 days
Quantity: viability
PSN1; 3 µM: 89.2% and 86.7% and 85.6% and 69.9%
SK-CO-1; 10 nM: 85.1% and 95.9% and 99.9% and 116%
HCT-116; 0.1 µM: 78.3% and 82.9% and 80.3% and 88.9%
ASPC1; 10 µM: 3.7% and 3.8% and 5.08% and 15.1%
NCI-H358; 10 nM: 94.2% and 98.8% and 92.6% and 92.5%
NCI-H1299; 0.3 µM: 113% and 108% and 93.1% and 98.2%
LCLC-97TM1; 10 nM: 99.9% and 87.2% and 89.9% and 102%
HPAC; 1 µM: 1.16% and 1.24% and 1.44% and 3.23%
PaTu 8902; 1 µM: 36.2% and 40.1% and 42.9% and 38.3%
T24; 1 nM: 96% and 96.9% and 104% and 97%

Sample 3
Compound: C[C@@H]1CN(c2ccc(-c3cc(C(=O)NCCOCCOCCOCCOCCNC(=O)/C=C/c4[nH]cc(C(=O)N[C@@H](CC(N)=O)c5ccc(F)c(Cl)c5)c4-c4ccc(Cl)cc4F)ccc3F)cc2NC(=O)c2c[nH]c(=O)cc2C(F)(F)F)C[C@H](C)N1C
Observed: thermal unfolding
Method: differential scanning fluorimetry
Tested at: 5.5 µM
Direction: higher = more unfolded
Quantity: SYPRO Orange fluorescence
WDR5: WD repeat-containing protein 5 (WDR5, Homo sapiens, UniProt P61964)
DCAF1: DDB1- and CUL4-associated factor 1 (DCAF1, Homo sapiens, UniProt Q9Y4B6)
UniProt Q9Y4B6, sequence (whole entry, looked up): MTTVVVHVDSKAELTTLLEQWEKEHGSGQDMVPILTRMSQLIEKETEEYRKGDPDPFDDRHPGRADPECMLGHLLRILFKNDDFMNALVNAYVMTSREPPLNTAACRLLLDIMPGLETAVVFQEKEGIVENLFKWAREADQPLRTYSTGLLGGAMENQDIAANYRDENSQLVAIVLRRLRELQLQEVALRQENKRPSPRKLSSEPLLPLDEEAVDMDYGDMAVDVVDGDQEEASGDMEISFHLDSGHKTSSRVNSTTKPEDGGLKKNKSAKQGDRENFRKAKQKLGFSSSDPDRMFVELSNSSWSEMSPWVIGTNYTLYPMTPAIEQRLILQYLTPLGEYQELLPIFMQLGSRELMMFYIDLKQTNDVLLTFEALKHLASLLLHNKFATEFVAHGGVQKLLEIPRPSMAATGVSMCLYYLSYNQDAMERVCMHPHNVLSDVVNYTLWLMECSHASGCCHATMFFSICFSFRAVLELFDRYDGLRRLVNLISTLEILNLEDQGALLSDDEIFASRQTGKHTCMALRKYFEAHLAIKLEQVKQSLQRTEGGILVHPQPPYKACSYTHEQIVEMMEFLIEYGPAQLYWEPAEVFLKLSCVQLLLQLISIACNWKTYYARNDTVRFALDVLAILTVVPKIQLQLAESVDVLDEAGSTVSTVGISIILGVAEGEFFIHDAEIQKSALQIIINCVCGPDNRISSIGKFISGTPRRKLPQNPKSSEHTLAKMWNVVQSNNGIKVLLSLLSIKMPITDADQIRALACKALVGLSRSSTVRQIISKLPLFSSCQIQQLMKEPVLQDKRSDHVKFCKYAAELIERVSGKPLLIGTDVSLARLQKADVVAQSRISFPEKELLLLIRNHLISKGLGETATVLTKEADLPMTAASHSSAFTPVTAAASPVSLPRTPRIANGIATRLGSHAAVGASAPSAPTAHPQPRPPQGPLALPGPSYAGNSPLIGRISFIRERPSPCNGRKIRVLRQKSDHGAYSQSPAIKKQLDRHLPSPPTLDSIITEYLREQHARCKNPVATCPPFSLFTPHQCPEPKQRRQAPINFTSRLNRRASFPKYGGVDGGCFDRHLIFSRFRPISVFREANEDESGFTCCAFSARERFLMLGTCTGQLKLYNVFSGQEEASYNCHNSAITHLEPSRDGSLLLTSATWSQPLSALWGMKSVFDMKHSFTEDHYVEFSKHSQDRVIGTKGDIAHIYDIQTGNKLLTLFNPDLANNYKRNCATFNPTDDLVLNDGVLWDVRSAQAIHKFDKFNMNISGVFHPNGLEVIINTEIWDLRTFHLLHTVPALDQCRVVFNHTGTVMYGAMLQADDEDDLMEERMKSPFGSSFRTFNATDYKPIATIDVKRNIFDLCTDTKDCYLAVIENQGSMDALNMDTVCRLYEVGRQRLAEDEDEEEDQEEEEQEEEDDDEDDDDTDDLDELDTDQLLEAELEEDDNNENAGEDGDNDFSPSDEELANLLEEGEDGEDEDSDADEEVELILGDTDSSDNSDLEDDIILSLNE
WDR5; 34.8 °C: 13200 a.u.
DCAF1; 42.6 °C: 12300 a.u.
DCAF1; 91.21 °C: 33800 a.u.
DCAF1; 36 °C: 10400 a.u.
DCAF1; 53.81 °C: 19200 a.u.
DCAF1; 65.81 °C: 59400 a.u.
DCAF1; 90.41 °C: 34600 a.u.
WDR5; 91.61 °C: 49000 a.u.
DCAF1; 51.8 °C: 16700 a.u.
DCAF1; 83.41 °C: 41900 a.u.
DCAF1; 80.81 °C: 44300 a.u.

Sample 4
Compound: CC[C@@]1(c2cccc(-c3c(F)cncc3OC)c2)C2=C(Nc3n[nH]cc31)[C@H](F)C(C)(C)CC2=O (single isomer, unassigned)
Tested at: 1 µM
Quantity: remaining binding
Serine/threonine-protein kinase TBK1 (TBK1, Homo sapiens, UniProt Q9UHD2); binding, competition with immobilised ligand: 90%
Tyrosine-protein kinase Yes (YES1, Homo sapiens, UniProt P07947); kinase binding, KINOMEscan; reference: DMSO control: 100%
Ribosomal protein S6 kinase alpha-5, C-terminal kinase domain (RPS6KA5, Homo sapiens, UniProt O75582); kinase binding, KINOMEscan; reference: DMSO control: 98%
Dual specificity testis-specific protein kinase 1 (TESK1, Homo sapiens, UniProt Q15569); kinase binding, KINOMEscan; reference: DMSO control: 100%
Phosphatidylinositol 4,5-bisphosphate 3-kinase catalytic subunit alpha isoform (PIK3CA, Homo sapiens, UniProt P42336, E545A); kinase binding, KINOMEscan; reference: DMSO control: 72%
Tyrosine-protein kinase ABL1, phosphorylated (ABL1, Homo sapiens, UniProt P00519, F317I); binding, competition with immobilised ligand: 63%
Serine/threonine-protein kinase RIO2 (RIOK2, Homo sapiens, UniProt Q9BVS4); binding, competition with immobilised ligand: 80%
Cyclin-dependent kinase-like 5 (CDKL5, Homo sapiens, UniProt O76039); kinase binding, KINOMEscan; reference: DMSO control: 82%
Serine/threonine-protein kinase ULK1 (ULK1, Homo sapiens, UniProt O75385); kinase binding, KINOMEscan; reference: DMSO control: 67%
Serine/threonine-protein kinase Sgk1 (SGK1, Homo sapiens, UniProt O00141); kinase binding, KINOMEscan; reference: DMSO control: 90%
Mitogen-activated protein kinase 9 (MAPK9, Homo sapiens, UniProt P45984); binding, competition with immobilised ligand: 59%
Protein kinase C eta type (PRKCH, Homo sapiens, UniProt P24723); kinase binding, KINOMEscan; reference: DMSO control: 91%
Cyclin-dependent kinase 9 (CDK9, Homo sapiens, UniProt P50750); kinase binding, KINOMEscan; reference: DMSO control: 100%
Calcium/calmodulin-dependent protein kinase type 1D (CAMK1D, Homo sapiens, UniProt Q8IU85); binding, competition with immobilised ligand: 78%
Tyrosine-protein kinase ZAP-70 (ZAP70, Homo sapiens, UniProt P43403); binding, competition with immobilised ligand: 75%
